Measurements of several laboratories.
Parts stem from different laboratories: compare values within a part only. Substitutions count along the parent as printed.

Series 1
Target: RNA binding protein fox-1 homolog 2, RRM domain, GST-SBP tag (RBFOX2, Homo sapiens, UniProt O43251-10, residues 100-194)
Technique: RNA Bind-n-Seq
Molecule type: RNA
Medium: in vitro
Tested at: 365 nM
Setting: natural RNA segment, single round, ends assumed
Baseline: no-protein control
Direction: higher = stronger binding
Quantity: RBNS enrichment (R)
Shared flanks, not repeated: GGGAGUUCUACAGUCCGACGAUC … UGGAAUUCUCGGGUGCCAA
Target sequence (chain): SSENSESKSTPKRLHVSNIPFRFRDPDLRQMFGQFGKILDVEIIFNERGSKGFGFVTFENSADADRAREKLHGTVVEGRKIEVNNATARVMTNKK
UUUGUACUAAAGUUUAUAGGUCUGUGCCAGCUAGAGAGGAGUUGCUGUCAUUGCUAGUCGUGCUCUAGCAUACAACCCUGAAACCAUCCUAGGUGACAUUUUAGAAUUAA: 0.212
AGAGACCCACUUUAUUCAGUUCUGUACAUAUGGGGACAUCGGCCCAAGCCCAGCCCACCUUAGCAUGUAUCACUCUGUGGAGAAUAAAGCACCCUGUGUACACAGCCAGA: 1.88
UACUGACAAAUAUGUAUUUCCUAUAUGUUUAUACUUUGAUUAUAAAAAAGUAUUUUGUUUUGAUUUUUUAACUUGCUGCAUUGUUUUGAUACUUUCUAUUUUUUUGGUCA: 3.87
UUAUUCUAUUUUGUACAGACAAGUUGGGAAAACAACAGCGACAAAAAAAAGUCGAGAAACUUUGUAAAAUAUUGUGUGUGUGAUUCCUUGUAAAAUAUUUUCAAAUGGUU: 0.958
UGAUGUUUACCAUAAGCAGGUACAAGCUUCAUGAACCGUUCUUAAUGAACUAUAAUUGAAUAGAUACCAAAAAUAGAAUGACAAAUGUAUUUUAAUAGCAGAUGAGGCAG: 1.02
CAUCUGUAGGUAGUUUGUCAUGAAAAAGUGGAGAGAAGAUGAGACUUUUGAAUGAAUGAAAAAGGGUAUCUUGAUACCCAGAAUUCCCCCCAAAGUACGGGUAAUUCAAC: 2.59
GGCUUGGUGUUUAAUGGGUUAAAAAUAAGCCACUGCCUGACAUCCCAACAUUUGACACCCCAGCAAUGUGUGACUCCCCCAACAUUCCACUAUGCCAUCCUGCAGCUGAA: 0.85
CCCCAUUCUGAAAGUCUGGCUUAGCGGGCAACACAGAGCCCUCAGCAUCCCAAACAUUGCCAGGAGGCUUCCCUGGACCCCAGCGAGACCCUGGCCUCUCUUGUCUGCAC: 1.56
AAGUACUCAAGUCUUUUGGGUAGUGAGCUGGAAAGCCUACAGGAAAAGAGGGGUACCUGUUUUCAUUUGAAAACUUUGAUUCAUGGAACCUUUAAAACUAAUCUCAGAAA: 0.319
UAUUUUAAGCCUUAUCCAGCAGCCAUAAUUUGAAUAACUCUACGAGACCAGAGAGACUGUAGUUCCCUAUUUUAACCUCAAUUAUGCAUUUGUCCCCCAACCCCACUGAG: 1.28
GAUUGUCCUGGCCGCGACCUGAGACCUCCAUGAGUGGAGGGAAGAGUGAUCUAUGUCUCUUCCCCCCAGCAGCUGGGACCAGUCCUAGCCCCGUCCCCAACCCCUUUCCC: 0.988
CCCUAAACCACUUCCUUAAAAUGUUUGGAUUUGCAAAGCCAAUUUGGGGCCUGUGGAGCCUGGGGUUGGAUAGGGCCAUGGCUGGUCCCCCACCAUACCUCCCCUCCACA: 0.477

Series 2
Target: Interferon regulatory factor 7, full length, phosphomimetic (IRF7, Homo sapiens, UniProt Q92985, residues 1-503, S101K/S471D/S472D/S475D/S476D/S477D/S483D/S484D/S487D)
Sequence of UniProt Q92985 (whole entry, unmodified, looked up): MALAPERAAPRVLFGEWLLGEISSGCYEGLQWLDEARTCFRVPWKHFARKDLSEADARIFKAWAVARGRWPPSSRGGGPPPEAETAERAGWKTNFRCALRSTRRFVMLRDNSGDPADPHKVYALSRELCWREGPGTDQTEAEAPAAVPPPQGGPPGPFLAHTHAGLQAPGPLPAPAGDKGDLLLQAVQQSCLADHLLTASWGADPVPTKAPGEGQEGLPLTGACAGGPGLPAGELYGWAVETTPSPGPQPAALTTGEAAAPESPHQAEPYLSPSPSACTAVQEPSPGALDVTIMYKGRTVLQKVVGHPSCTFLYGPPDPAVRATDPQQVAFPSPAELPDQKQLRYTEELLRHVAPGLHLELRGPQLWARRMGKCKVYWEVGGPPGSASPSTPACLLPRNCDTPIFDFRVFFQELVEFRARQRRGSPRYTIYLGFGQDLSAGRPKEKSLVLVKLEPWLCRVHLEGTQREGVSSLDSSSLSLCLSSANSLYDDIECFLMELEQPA
Technique: protein-binding microarray
Molecule type: double-stranded DNA, one strand shown
Medium: in vitro
Tested at: 250 nM
Setting: 60-bp whole probe
Added: salmon DNA 0.4 mg/ml
Baseline: random background probes
Direction: higher = stronger binding
Quantity: log fluorescence
Shared flanks, not repeated: GCCTAGCAC … GTCTTGATTCGCTTGACGCTGCTG
TTATGTATCGGTTTCGGTTAGTGCTAG: 9.21 z-score
AGAGCAGACCCAGAGTGGCAGTGCTAG: -0.733 z-score
TTAGGTCTCCTACTGCTATAGTGCTAG: 0.0658 z-score
TTAGGTTTCGACTTCCGGTTAGTGCTA: 11.3 z-score
TGAAAATTCTAATTAGAATTGTGCTAG: -0.261 z-score
GAGGGTCTCGGACTGGGGACGTGCTAG: -0.417 z-score
TTAGATTTCGGGTTTCGCTTAGTGCTA: 5.63 z-score
AACGGTCTCCTACTGCTGACGTGCTAG: -0.185 z-score
CATTTTCTCTTATTCTAACAGTGCTAG: 3.47 z-score
GACGATATCAGACTGGGGACGTGCTAG: 0.0784 z-score
CTAGGTCTCGGTCTCGGTTAGTGCTAG: 2.66 z-score
GACGGTCTCCTTATACTGACGTGCTAG: 0.105 z-score
GACGGTTTCCTCCTCCTGACGTGCTAG: 1.19 z-score
TTAGGTATCGACAATGGGTTAGTGCTA: -0.0866 z-score
TCACCAATCATTTTTGCACTGTGCTAG: -0.173 z-score
TTAGGACTCGACTTTCGGTTAGTGCTA: 3.57 z-score
TCAATTGTGGTTTTCATACTGTGCTAG: 0.526 z-score
CTGACCTTTTCCTGAGGCAGGTGCTAG: 1.81 z-score
GACGACCTGAGACTGGAGACGTGCTAG: -0.253 z-score
AACTTTTTTTTTTCCCTGAAGTGCTAG: 0.733 z-score
CACGGTTTCGGACTGGGGACGTGCTAG: 4.27 z-score
TTAGGTATCCTTATACTTTAGTGCTAG: 0.262 z-score
TTAGGTTTCATTTTCCTTTAGTGCTAG: 7.59 z-score
TTAGGTATCGGTTTCAGTTAGTGCTAG: 6.37 z-score
GCCATTATGAGTCTTGAAGAGTGCTAG: -0.104 z-score

Series 3
Target: Centromere-binding protein 1, full length, N-terminal tag (CBF1, Saccharomyces cerevisiae, UniProt P17106, residues 1-351)
Sequence of UniProt P17106 (whole entry, looked up): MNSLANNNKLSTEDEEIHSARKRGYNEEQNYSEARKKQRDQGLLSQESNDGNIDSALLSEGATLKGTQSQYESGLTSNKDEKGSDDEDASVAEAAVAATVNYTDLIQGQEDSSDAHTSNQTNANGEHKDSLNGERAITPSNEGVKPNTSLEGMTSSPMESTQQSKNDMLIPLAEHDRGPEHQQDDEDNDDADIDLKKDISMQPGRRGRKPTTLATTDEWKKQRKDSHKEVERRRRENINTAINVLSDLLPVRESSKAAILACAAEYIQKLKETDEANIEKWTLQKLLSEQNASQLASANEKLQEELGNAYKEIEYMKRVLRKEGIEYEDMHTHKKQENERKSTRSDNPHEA
Technique: protein-binding microarray
Molecule type: double-stranded DNA, one strand shown
Medium: in vitro
Tested at: 0.8 µM
Setting: whole 60-bp probe, no competitor
Direction: higher = stronger binding
Quantity: fluorescence intensity
Shared flanks, not repeated: … GTCTTGATTCGCTTGACGCTGCTG
GAATTTTCAATAACGCACATGGTGGTGTACGGGTAG: 615 a.u.
GAATTTTTATGAGAAAACGTGAAAAAACTTCGTTAG: 640 a.u.
CTACTTACCCTCCCACGTGCTAGATTTTTCGATTTC: 5740 a.u.
TGTACGAAGCTATATCACGATTGTATAGTAGTTAGG: 528 a.u.
GAAACCGATAATAATAATCACGTTTATATCACGTAG: 1480 a.u.
TGTACGAAGCTATAAAACGTGTATATAGTAGTTAGG: 582 a.u.
GAAGAACAATTGTGAAACGTGATCAATTCGTGTTAG: 3260 a.u.
CTAGATCCCTGAAGTCATGCCCCTCACCTTCATTTC: 624 a.u.
GAAACTAATGCCTTTCACGATATGTGTGGCAGATAG: 550 a.u.
GAATACTTCAACACTCTCACGAGTTTAATTCAATAG: 576 a.u.
CTATCTAAAATTTTTCAGTCACCTTTAACGAAATTC: 579 a.u.
CTAATCTCACGTATTCACGTAATATTTGATTTTTTC: 499 a.u.
CCTAACTACTATAGGCACGCCTAATAGCTTCGTACA: 482 a.u.
GAATACGGGAACGACCATCACGTTTCTTTTATGTAG: 1160 a.u.
CTAACATACAACCATCACGTAGAGGAAATTCTTTTC: 588 a.u.
TGTACGAAGCTATATCAGGCATATATAGTAGTTAGG: 541 a.u.
CTACTTCTTCATCACCACGATGTATCTTTTGTTTTC: 554 a.u.
GAAAATGGATATATACATGTGGTACTATTTCTCTAG: 696 a.u.
CTATTCCCTTAATATGTCATGAGAATAAAATATTTC: 655 a.u.
CTATTCTAGTAGCTTTACGTGACGAATTAAACCTTC: 671 a.u.

Series 4
Target: CCND3, cyclin fold, Cln2 fusion (human)
Technique: yeast growth competition, sequencing
Medium: yeast
Setting: weak parent motif
Baseline: not given
Direction: higher = stronger binding
Quantity: normalised enrichment score
Starting sequence: GMNC docking peptide (human); KNAKRNLSSEFAN
S9A: 0.1
N6I: 0.203
A3S: 0.329
A12W: 0.22
N6W: -0.0227
F11R: 0.114
A3D: 0.312
A12H: 0.127
S9R: 0.422
K4Y: 0.22
S8E: -0.21
A12G: -0.33
A3H: 0.54
N6H: 0.0222
A3F: 0.509
K4V: -0.103
N2S: 0.329
K4S: 0.13
F11V: 0.196
S9C: 0.543
A12V: -0.153
S9I: 0.199
N6P: 0.296
E10V: 0.227
E10P: 5.46e-05

Series 5
Target: Histone acetyltransferase KAT6A, both winged helices, GST fusion (KAT6A, Homo sapiens, UniProt Q92794, residues 1-181)
Technique: protein binding microarray
Molecule type: double-stranded DNA, one strand shown
Medium: in vitro
Tested at: not given
Setting: 8-mer, flanks averaged, mean of 2 arrays, mostly near background
Baseline: not given
Direction: higher = stronger binding
Quantity: E-score
Target sequence (chain): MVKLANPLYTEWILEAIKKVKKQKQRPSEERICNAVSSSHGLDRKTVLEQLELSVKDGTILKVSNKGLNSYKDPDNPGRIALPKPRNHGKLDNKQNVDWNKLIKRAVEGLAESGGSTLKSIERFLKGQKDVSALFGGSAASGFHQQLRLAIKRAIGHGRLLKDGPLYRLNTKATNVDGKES
ATCAGGAC: -0.0285
TCTGAGCA: -0.214
AGCTGGGG: -0.301
AGATCGCC: 0.0279
GTTAGCAA: -0.181
ATGCTGGC: -0.173
CCCAGCAA: -0.15
AACTCCAC: -0.092
AGACGATA: -0.0438
CTTATAAC: -0.0419
ACATATAC: -0.0822
GCCAAGGC: -0.107
GCTGTAAC: -0.0425
ATTCTCGC: -0.105
CGAGTGAA: 0.0446
CACTGTCC: 0.0519
GCGTTGTA: 0.183
CAATCTGA: 0.0413
ATGCCGGG: 0.286
CGACGGCG: 0.364
ACTGATCT: -0.0723
GAAAGTAA: -0.116
CGTGTGCC: 0.101
ATTAAATC: 0.0223
CCATATAG: -0.0488
